Results gathered from unrelated publications.
Numbers after ± are the reported error.

CC(=O)N[C@@H](CC(N)=O)C(=O)NCC(=O)N[C@@H](C)C(=O)N[C@@H](C)C(N)=O  rate constant k1 (Asn-Gly peptide isomerisation to succinimide; 1H NMR time course; pH 6.3, 55 °C): 0.0235 h⁻¹
COc1cc(CNC(=O)C[C@H](C)CCC=C(C)C)ccc1OCc1cn(-c2ccc(C#N)cc2)nn1  growth percent (MCF7 breast cancer cells; SRB; 10 µM, 48 h): 42.3%
C=C(CC)C(=O)c1ccc(OCC(=O)NCCNC(=O)COc2ccc(C(=O)C(=C)CC)c(Cl)c2Cl)c(Cl)c1Cl  inhibition (glutathione S-transferase, human; enzyme activity; SK-OV-3 cell lysate; 0.2 µM): ~35%
O=Cc1c(O)ccc2ccccc12  log2 fold change (HUVEC; RNA sequencing, refers to: CDCA7; 75 µM, 24 h; baseline: DMSO): -2.91
Cc1nn(-c2ccc(S(=O)(=O)N[C@@H](CO)CC(C)C)cc2)c2nn3nnnc3nc12  apoptotic cells (PC-3; PI/Hoechst staining; 2 µM, 24 h): 13 ± 1.4%
CCCCN1C(=O)c2cccc3c(NCCCCCCN4CCOCC4)ccc(c23)C1=O  blue shift of emission maximum (lysosomes; HEK293; lysosomal micro-polarity; baseline: water): 37 nm
COc1cc(CNC(=O)C[C@H](C)CCC=C(C)C)ccc1OCc1cn(-c2ccccc2F)nn1  growth percent (MOLT-4 leukaemia cells; SRB; 10 µM, 48 h): 74.8%
C=C(CC)C(=O)c1ccc(OCC(=O)NCCCCNC(=O)COc2ccc(C(=O)C(=C)CC)c(Cl)c2Cl)c(Cl)c1Cl  inhibition (glutathione S-transferase, human; enzyme activity; A549 cell lysate; 0.2 µM): ~70%
COc1cc(CNC(=O)C[C@H](C)CCC=C(C)C)ccc1OCc1cn(-c2cccc(Cl)c2)nn1  growth (786-0; SRB; 10 µM, 48 h): 92.3%
COc1ccc(S(=O)(=O)NCc2c[nH]nc2-c2cccs2)cc1  parasitemia (Plasmodium vivax; reinvasion; 2, human, human red blood cells; 3× EC50, 20 h): 0%
COc1cc(CCC(C)=O)ccc1O  IC50 (mAb 6-AT6; antibody binding, indirect competitive ELISA; added: coating antigen 3-OVA): > 4 µg/mL
COc1cc(CNC(=O)C[C@H](C)CCC=C(C)C)ccc1OCc1cn(-c2ccccc2Cl)nn1  growth percent (MCF7 breast cancer cells; SRB; 10 µM, 48 h): 40.6%
COc1ccc(CC2COC(=O)C2Cc2ccc3c(c2)OCO3)cc1OC (mixture of isomers)  protein level (A2780cis; western blot, refers to: CDK1; 3.25 µM, 72 h): decreased
